# Measurements from different studies.
# Each numbered part is a random draw from the data of one study; scales do not carry over between parts. Changes are numbered by the printed parent chain.

# Block 1
# Target: CCNB1, cyclin fold, Cln2 fusion (human)
# Technique: yeast growth competition, sequencing
# Sample: yeast
# Notes: strong parent motif
# Baseline: not given
# Reading: higher = stronger binding
# Parent: E2F1 docking peptide (human); PPVKRRLDLETDH
Variant,normalised enrichment score
PPVKRRLDLETRH [D12R],0.655
PPVKRRLQLETDH [D8Q],1.36
IPVKRRLDLETDH [P1I],0.847
PPVKRRLDLETVH [D12V],1.24

# Block 2
# Target: Sox-I, HMG box (Salpingoeca helianthica)
# Technique: Spec-seq
# Molecule type: double-stranded DNA, one strand shown
# Sample: in vitro
# Concentration: not given
# Notes: whole probe, mean of replicates
# Baseline: not given
# Reading: lower = stronger binding
# Shared flanks, not repeated: GAGTCGTCTCGTCAGCAC … CCGTAGAGCACTCAGGTC
# Construct (chain): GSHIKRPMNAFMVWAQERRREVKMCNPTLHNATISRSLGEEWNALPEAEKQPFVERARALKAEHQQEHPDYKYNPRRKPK
Oligonucleotide,relative binding energy [ln ratio]
CATGTCA,0.796
CATCGCG,1.13
CATACGC,0.805
CATGTTG,0.919
TTGGGTT,0.912
TCGGGTT,0.972
CATTTGT,-0.644

# Block 3
# Target: Centromere-binding protein 1, full length, His-tagged (CBF1, Saccharomyces cerevisiae, UniProt P17106, residues 1-351)
# Chain of UniProt P17106 (whole entry, looked up): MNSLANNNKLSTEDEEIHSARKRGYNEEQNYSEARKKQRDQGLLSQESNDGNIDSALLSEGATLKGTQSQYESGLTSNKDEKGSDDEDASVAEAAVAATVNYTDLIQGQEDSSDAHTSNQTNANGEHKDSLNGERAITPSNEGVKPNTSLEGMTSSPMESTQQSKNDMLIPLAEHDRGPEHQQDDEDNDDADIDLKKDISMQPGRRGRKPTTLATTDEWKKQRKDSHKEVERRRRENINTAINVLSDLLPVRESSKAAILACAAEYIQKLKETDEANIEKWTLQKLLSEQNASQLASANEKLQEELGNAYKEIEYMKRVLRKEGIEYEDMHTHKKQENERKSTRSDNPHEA
# Technique: competition protein-binding microarray
# Molecule type: double-stranded DNA, one strand shown
# Sample: in vitro
# Concentration: 2 µM
# Notes: whole 60-bp probe, lowest competitor level
# Added: Pho4 competitor, 0.05 µM
# Reading: higher = stronger binding
# Shared flanks, not repeated: … GTCTTGATTCGCTTGACGCTGCTG
Oligonucleotide,fluorescence intensity [a.u.]
TGTTGTAATTTTTGGCATGTGCTATTGTATGAAGAT,231
TTTTTTTTCCGTAGTGCCGTGCCGACATTACCGAAT,71.3
GTCTTGTCTCATTGCTCAGTGGGTGTCCCCACTTCA,81.8
CCAAATTGGCTGAAGAGCGTGGCCGGACGAACATTC,60.1
ATGAATGTTGCGAGTCACGTCTTTTGTCTCGATACC,226
AGAAAGACCCAGAGGCACATGCAAGATAGTTGTGCC,108
CATACCCAACCTTGTCACGGGACTTAAGATATTTGT,1110
CGTCCTAGTGATTGTCCCGTGGGTGCCATGAGGAAG,126
TAGAGCTTGCCTCGTCAGGTGATGACAAGTTGTAAA,888

# Single results of other studies
Molecule,target,assay,test system,setting,scale,measurement,value
"PhoQ, residues 284 288 289 292 302 303 NLSRDF","PhoP, residues 12 14 15 18 19 LQHIR (Escherichia coli, UniProt P23836)","Sort-seq, refers to: YFP reporter",E. coli,"PhoQ-PhoP variant library, added: 10 µM Mg2+","baseline: high Mg2+ state, higher = stronger signaling",fold induction,20.8
